Assay results pooled from the literature.
Each numbered part is a random draw from the data of one study; scales do not carry over between parts. Changes are numbered by the printed parent chain.

Block 1
Target: CEP164, C-terminal peptide (human)
Technique: DHFR complementation, deep sequencing
Matrix: yeast
Notes: single substitutions, model-inferred values
Baseline: wild type
Reading: higher = weaker binding
Parent: PDZK1, PDZ domain 2 (human); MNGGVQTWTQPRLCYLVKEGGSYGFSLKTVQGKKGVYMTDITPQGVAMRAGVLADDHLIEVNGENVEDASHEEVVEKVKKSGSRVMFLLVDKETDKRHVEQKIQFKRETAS; partner HNRVKVYRF
Variant	binding free energy change
L58F	0.063 kcal/mol
G45R	1.15 kcal/mol
V78P	1.25 kcal/mol
Y23A	1.28 kcal/mol
V46W	0.988 kcal/mol
G63Y	0.0353 kcal/mol
R97F	-0.173 kcal/mol
Q44A	0.037 kcal/mol
A110D	-0.0476 kcal/mol
Y23W	0.781 kcal/mol
V36R	1.35 kcal/mol
Y15L	0.0892 kcal/mol
G20P	1.08 kcal/mol
E93G	0.000404 kcal/mol
K80F	0.761 kcal/mol
G82S	0.677 kcal/mol
F105P	-0.135 kcal/mol

Block 2
Target: CCNB3, cyclin fold, Cln2 fusion (human)
Technique: yeast growth competition, sequencing
Matrix: yeast
Notes: weak parent motif
Baseline: not given
Reading: higher = stronger binding
Parent: E2F3 docking peptide (human); PPAKRRLELGESG; partner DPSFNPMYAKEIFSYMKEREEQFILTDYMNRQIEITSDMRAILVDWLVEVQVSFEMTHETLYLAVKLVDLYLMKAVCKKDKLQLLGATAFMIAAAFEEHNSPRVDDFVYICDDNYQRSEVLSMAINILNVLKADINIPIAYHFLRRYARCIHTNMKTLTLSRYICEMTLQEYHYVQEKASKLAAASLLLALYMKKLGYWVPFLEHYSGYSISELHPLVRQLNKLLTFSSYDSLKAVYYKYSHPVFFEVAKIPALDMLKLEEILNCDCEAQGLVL
Variant	normalised enrichment score
P2A	0.299
G13A	-0.195
R5K L9F	0.628
G10A	0.456
R5A L7A	-0.00321
L9F	1.66
S12A	0.232
E11A	0.492
P1A	0.342

Block 3
Target: Histone acetyltransferase KAT6A, winged helix 1, GST fusion (KAT6A, Homo sapiens, UniProt Q92794, residues 1-85)
Technique: protein binding microarray
Molecule type: double-stranded DNA, one strand shown
Matrix: in vitro
Concentration: not given
Notes: 8-mer, flanks averaged, mean of 2 arrays, mostly near background
Baseline: not given
Reading: higher = stronger binding
Target sequence (chain): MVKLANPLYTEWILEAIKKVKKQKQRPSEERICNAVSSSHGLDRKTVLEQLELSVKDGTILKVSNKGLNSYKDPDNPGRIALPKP
Sequence	E-score
CTAACGCC	0.153
AAAACTCC	-0.0465
ACAACTCC	-0.0823
GCTGGCGA	0.0134
AACATAGG	-0.0185
GACAAGTA	0.0568
CCGGACAG	0.0406
CACCTGTA	-0.153
ACGCTACT	0.151
CCGGACGC	0.314
ACTGCTGC	-0.0272
CCACAGCC	-0.214
ATGGTTAG	-0.19
ATTTGGCA	-0.275
AGCCACAG	-0.214
AAGCTTTG	-0.114
ACCTCACT	0.0459
CACCTGAA	-0.237
CGGCACGA	0.182
AATAGGCC	-0.0694
ATTCAGAA	-0.153
AGTTCTCG	-0.298
CCAGCTAG	-0.3
GACTTCTC	-0.251
CATCACTC	-0.0792

Block 4
Target: FOS, bZIP domain (human)
Technique: DHFR protein complementation
Matrix: yeast
Notes: single substitutions, most at no-binding floor
Baseline: wild-type JUN-FOS pair
Reading: higher = stronger binding
Parent: JUN, bZIP domain (human); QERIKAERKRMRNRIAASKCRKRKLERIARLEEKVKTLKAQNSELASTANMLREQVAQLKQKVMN; partner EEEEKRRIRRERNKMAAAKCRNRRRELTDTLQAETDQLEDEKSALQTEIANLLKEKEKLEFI
Variant	binding fitness [natural log]
M51N	-0.0369
S47D	0.0329
E54H	-0.146
R53H	-0.644
L45V	-1.32
E54V	-0.314
L45P	-1.32
A46N	-0.102
K34Q	-0.0752
L59V	-1.07
Q41G	-0.161
A57G	-0.175
A40R	-0.0237
L59Q	-1.33
L59G	-1.19
V35S	-0.467
A29W	-0.268
N42R	-0.272
V35N	-0.136
A57Q	-0.0962
T37L	0.0278
A40H	-0.064

Block 5
Target: RING finger protein unkempt homolog, zinc fingers 1-6, SBP tag (UNK, Homo sapiens, UniProt Q9C0B0, residues 30-357)
Sequence of UniProt Q9C0B0 (30-357, looked up): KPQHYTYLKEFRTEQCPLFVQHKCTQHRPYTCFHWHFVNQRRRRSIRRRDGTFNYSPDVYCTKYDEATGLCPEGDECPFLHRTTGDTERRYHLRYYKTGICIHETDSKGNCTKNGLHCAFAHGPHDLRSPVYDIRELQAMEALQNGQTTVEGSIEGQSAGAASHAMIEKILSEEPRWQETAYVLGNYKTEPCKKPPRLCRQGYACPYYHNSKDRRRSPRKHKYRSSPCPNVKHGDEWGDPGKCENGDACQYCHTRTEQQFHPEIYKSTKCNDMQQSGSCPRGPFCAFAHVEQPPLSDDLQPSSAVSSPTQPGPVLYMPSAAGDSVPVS
Technique: RNA Bind-n-Seq
Molecule type: RNA
Matrix: in vitro
Concentration: 100 nM
Notes: RNA with constant flanks, vertebrate orthologous sites, ends assumed
Baseline: input RNA pool
Reading: higher = stronger binding
Constant ends, left off below: GGGAGUUCUACAGUCCGACGAUC … CAACAGAGGAUUGAGCAUCA
Sequence	bound/input enrichment [ratio]
AACCCCGAUUUUAGAUGUGAUACCUAGGCUUUCAUUCCAGUUUGUUUUUGUCUUCUUGUUUAGAUACCAAUCUUUUAAAUUCUUGCAUUUUAGUAAGAAAGCUACCUUUUUAUGGAUGUU	1.3
UCCCGGCAGCGCCAGCGCGGGUAGCCACCCUUCUCACACUGCUCUGUCUUUAUUUUAUUUUCCUCAGGACUGACCUUGAGGCUCCAGCUUUUGUGGUUCAUCUCGUAUUUAUUUUAUCUU	1.16
GGGCAGCCGGUGGGGGAAUCCCAUGCUCUGGCCUUGCCUCCCCUCCCUGCCACCCGCUCCUAGUUAUUUUUUUUUUAACCACCAUGUGAUUAAGGUCGGCACUGCCUCCCCCGACCCACU	2.26
UUGGGAGCAGUUCUCCAAAUAGAAAUAGUAAUAAAAAAACCAAACAAAAUGAUAUUUGUGUAGACAAAACAGAAUUUAAAUCAUGGAAAGUAAAUGCUGCCAGUAUUCCAGGUCCUAAAG	2.76
GAACCCCAGUCUGUAUGUACAUUAUUCACAUUCCUCUCUGUUGUGUUUGGGGAAGACAUUUUAGCCUUUUUUAAAGUUACUGAUUUAAUUUCAUAUUAUUUGGUUGCAUGAAAUUGCCCU	1.1
AUUUAGAAUGUUAAUAAAUUGCUCUGAGUUUCCUCAAGUCCAUUUUGUAAGAUCAGGCCAUAGGAGGGUGUUGUUUCUUUUAAGUUUGUGUACUGUGUCCAAUGUUACAUUUUUAGAAGU	2.72
CAGGGUAUACCUGUGGGGCACUGCUGGCCGCUUAUUGUUGUUUAAUUUGUGACCUUGACAUCAUAGAUAGGCUUUUUUUUUUAAUUUAAAGAUAGUAAGACCUAAUUCACUAAAAUUUAU	0.858
AAAUUUAUUUCAUGCCCUGGACUCCCUACCGUACUGAUACUUUAAUAGAAUAUGCUUCUUUAGAAGAUUUCCAAAACAGCCGUCAGACGACAACAUACAAACUUCCAAAUCGAGUCGAUG	1.29
AGGAAAUGCUGGCUGCAAACCCUCAGGAUCGUCCAGAUGCUUUUGAACUAGAACUCAGAUUAGUACAAAUUGCAUUUAAAGAUAGCAGCUGGGAAACGUGACACAUAUUAUUUGCAAAUA	0.879
CCACAUUAGCACCCUGCCAGCCUACCAGCCUCUCUGUGCACAGCUUCUAAUGUUAUGAUCUAGCUAGAUUUUUAUUUAAAAUAUGAAAAACUGCUUUUCCCAAGACGUUUUUUAAAAGGA	0.908
AAUUGACAAUGAAAAGAGCCAAGCAGUAGCAUUUUGUUUUUUUAUAAAUGUAAAAAUUAGAUUCACUGUUUCCUAUUCAGUUUUAAAAAUAAAAAUACCUCAGUGCUGUGUUUCCCAGUA	0.673

Block 6
Target: ABI1, truncated, D143A, DHFR fusion (Arabidopsis thaliana)
Technique: DHFR PCA, deep sequencing
Matrix: yeast
Notes: methotrexate growth selection, single substitutions
With: (+)-ABA 0.0091 µM
Baseline: wild-type fitted maximum
Reading: higher = stronger binding
Parent: PYL1, truncated, DHFR fusion (Arabidopsis thaliana); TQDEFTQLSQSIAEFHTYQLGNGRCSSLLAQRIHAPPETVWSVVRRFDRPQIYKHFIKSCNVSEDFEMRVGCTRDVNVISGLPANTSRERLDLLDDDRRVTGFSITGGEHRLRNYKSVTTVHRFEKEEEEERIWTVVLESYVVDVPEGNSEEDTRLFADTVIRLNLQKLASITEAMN
Variant	relative binding score [%]
E151D	9.12
R88A	5.17
L28G	-0.707
T101Q	-13.6
V143S	-1.54
Y18R	-0.452
G108F	-9.48
L156Y	1.83
T135I	-2.89
F5M	49.5
R99A	-7.05
Q51W	-1.41
I133C	44.7
V100M	-0.283
D97Q	25
A13K	53.2
V62H	-8.46

A few entries again (block 1):
Variant	binding free energy change
V78P	1.25 kcal/mol
Y23A	1.28 kcal/mol
V46W	0.988 kcal/mol
G63Y	0.0353 kcal/mol
R97F	-0.173 kcal/mol
Q44A	0.037 kcal/mol
A110D	-0.0476 kcal/mol
Y23W	0.781 kcal/mol
V36R	1.35 kcal/mol
Y15L	0.0892 kcal/mol
G20P	1.08 kcal/mol
E93G	0.000404 kcal/mol
K80F	0.761 kcal/mol
